Measurements collected from several papers.
Every numbered part comes from another study and shows a few of its results, in no order. Substitutions count along the parent as printed.
Sequence of UniProt P10721 (whole entry, unmodified, looked up): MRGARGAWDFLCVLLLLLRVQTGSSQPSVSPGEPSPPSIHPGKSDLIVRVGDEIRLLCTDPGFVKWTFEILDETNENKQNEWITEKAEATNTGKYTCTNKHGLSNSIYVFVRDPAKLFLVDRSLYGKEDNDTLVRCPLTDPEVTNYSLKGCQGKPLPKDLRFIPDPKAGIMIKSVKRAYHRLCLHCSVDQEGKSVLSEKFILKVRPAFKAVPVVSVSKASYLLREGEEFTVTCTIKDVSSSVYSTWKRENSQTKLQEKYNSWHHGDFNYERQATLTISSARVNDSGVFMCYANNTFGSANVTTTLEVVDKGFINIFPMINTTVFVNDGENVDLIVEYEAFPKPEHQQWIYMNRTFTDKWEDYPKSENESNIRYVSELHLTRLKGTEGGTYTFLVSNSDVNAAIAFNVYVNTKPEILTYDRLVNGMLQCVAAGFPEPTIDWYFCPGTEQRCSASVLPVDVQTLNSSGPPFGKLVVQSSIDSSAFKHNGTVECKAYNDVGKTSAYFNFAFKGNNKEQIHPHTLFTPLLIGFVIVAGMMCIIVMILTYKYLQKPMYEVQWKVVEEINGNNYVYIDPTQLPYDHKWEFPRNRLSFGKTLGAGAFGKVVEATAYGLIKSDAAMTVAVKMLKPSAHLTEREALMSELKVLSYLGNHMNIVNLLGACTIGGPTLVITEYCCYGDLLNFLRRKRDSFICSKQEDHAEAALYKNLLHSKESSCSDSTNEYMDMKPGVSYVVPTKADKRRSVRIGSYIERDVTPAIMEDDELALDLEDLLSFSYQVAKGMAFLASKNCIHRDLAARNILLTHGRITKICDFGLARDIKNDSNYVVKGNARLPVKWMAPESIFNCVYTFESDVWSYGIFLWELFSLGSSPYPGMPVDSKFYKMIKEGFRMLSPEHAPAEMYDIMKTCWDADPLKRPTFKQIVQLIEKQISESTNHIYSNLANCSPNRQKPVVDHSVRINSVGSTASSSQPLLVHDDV
Sequence of UniProt Q15208 (whole entry, looked up): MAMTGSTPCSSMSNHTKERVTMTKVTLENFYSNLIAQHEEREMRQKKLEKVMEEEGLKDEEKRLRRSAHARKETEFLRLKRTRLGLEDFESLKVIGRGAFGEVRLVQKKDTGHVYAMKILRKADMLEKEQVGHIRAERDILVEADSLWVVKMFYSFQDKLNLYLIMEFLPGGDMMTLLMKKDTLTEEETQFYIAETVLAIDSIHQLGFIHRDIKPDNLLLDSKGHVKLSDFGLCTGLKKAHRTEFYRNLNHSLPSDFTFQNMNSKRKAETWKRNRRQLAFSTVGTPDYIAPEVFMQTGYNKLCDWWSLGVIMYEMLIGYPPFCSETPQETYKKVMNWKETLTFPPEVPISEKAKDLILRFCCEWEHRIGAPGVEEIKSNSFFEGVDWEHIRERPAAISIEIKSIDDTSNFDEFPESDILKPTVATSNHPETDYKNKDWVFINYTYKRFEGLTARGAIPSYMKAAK
Sequence of UniProt Q9H3Y6 (whole entry, looked up): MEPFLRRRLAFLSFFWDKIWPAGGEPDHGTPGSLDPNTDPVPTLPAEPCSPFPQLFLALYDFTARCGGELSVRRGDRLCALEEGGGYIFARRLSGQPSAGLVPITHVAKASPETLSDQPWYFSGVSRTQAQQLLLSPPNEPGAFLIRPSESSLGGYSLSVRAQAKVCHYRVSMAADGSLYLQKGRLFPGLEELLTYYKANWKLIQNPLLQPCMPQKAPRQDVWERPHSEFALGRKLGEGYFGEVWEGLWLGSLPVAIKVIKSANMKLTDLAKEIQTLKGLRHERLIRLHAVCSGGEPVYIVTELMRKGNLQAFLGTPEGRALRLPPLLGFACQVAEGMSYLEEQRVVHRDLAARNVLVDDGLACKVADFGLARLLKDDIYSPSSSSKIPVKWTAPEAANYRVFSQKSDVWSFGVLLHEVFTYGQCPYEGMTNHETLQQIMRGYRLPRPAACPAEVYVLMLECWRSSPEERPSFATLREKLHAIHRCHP
Sequence of UniProt P00519 (whole entry, looked up): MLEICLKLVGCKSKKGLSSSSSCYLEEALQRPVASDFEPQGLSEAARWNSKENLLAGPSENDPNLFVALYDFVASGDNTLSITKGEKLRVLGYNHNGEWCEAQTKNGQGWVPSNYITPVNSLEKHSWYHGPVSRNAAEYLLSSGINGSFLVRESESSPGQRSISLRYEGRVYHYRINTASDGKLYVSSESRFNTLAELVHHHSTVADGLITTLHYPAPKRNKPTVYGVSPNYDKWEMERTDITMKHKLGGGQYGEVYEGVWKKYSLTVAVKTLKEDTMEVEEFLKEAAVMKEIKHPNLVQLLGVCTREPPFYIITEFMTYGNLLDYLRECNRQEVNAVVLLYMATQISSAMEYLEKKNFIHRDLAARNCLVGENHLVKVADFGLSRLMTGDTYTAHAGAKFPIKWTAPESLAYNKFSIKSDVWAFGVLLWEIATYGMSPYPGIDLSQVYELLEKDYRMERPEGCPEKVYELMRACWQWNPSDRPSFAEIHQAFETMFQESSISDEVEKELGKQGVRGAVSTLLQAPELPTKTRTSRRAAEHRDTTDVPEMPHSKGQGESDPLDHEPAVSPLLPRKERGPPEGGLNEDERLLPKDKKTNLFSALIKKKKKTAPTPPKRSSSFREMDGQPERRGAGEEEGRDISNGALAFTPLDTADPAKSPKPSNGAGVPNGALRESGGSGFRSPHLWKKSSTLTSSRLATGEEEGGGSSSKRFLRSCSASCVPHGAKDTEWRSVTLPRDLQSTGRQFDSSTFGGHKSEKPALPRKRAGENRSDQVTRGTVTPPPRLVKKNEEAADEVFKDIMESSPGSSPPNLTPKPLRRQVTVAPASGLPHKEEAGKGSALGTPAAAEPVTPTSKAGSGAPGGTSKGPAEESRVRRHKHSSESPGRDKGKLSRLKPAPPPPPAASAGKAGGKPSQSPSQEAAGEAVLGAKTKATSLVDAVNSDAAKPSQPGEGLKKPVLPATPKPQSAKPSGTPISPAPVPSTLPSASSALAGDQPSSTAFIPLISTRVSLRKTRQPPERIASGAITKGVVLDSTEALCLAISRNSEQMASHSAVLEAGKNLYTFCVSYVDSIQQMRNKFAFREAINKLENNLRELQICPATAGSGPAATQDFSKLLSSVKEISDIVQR
Sequence of UniProt P32298 (whole entry, looked up): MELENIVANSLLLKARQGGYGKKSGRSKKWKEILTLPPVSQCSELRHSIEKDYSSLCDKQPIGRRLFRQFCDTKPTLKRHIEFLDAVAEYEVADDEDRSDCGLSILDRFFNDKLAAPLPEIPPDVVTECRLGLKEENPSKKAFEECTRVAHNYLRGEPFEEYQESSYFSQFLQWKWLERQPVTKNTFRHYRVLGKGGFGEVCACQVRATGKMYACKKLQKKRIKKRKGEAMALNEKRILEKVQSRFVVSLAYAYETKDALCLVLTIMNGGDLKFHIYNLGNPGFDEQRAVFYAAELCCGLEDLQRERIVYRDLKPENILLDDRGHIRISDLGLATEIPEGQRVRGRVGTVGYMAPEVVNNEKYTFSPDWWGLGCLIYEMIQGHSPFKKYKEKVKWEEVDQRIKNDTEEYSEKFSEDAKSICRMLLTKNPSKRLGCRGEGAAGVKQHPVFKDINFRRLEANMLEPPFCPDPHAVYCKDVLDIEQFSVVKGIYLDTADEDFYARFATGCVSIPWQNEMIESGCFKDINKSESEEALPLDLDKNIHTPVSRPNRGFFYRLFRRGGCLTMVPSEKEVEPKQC
Sequence of UniProt Q9HAZ1 (whole entry, looked up): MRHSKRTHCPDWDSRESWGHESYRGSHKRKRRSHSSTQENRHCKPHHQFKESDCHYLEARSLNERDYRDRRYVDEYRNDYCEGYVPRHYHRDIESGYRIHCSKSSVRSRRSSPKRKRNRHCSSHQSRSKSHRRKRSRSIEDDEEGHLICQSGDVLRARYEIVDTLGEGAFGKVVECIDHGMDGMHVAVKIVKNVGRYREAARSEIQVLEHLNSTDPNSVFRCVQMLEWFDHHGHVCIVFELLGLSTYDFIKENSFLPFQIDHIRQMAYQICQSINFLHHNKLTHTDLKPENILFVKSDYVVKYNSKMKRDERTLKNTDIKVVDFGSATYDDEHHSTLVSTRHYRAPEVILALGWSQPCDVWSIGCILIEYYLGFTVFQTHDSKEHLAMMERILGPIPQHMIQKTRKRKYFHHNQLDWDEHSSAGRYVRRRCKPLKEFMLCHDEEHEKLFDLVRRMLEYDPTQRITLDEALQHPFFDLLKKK
Sequence of UniProt O76039 (whole entry, looked up): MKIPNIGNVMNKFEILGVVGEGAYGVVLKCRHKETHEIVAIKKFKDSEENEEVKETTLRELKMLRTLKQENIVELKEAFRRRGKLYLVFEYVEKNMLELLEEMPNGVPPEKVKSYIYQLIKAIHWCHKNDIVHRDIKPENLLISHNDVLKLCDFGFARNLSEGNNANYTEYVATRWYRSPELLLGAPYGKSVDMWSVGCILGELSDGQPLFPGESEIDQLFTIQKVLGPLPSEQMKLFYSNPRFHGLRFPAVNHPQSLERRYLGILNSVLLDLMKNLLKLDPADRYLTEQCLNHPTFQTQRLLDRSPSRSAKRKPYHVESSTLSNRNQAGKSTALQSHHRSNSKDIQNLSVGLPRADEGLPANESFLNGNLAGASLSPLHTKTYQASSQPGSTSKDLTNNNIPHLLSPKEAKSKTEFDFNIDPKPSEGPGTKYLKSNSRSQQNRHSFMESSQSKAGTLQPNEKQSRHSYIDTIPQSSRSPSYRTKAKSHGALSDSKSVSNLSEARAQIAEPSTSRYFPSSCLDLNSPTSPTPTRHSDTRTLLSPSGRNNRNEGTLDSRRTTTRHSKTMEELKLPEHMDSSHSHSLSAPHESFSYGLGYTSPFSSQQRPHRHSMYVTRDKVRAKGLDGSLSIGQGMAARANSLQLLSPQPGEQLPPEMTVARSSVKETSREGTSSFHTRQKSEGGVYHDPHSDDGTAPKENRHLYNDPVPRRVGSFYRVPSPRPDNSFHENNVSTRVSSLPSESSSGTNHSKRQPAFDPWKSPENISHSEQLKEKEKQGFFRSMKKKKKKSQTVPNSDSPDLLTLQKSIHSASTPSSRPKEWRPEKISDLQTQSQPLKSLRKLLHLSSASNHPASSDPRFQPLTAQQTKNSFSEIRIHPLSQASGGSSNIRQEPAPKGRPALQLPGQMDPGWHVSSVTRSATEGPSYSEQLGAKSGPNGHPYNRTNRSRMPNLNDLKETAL

Study 1 — target: OGT, full length, His-tagged (human); technique: phage display, sequencing; medium: in vitro; tested at: 1 µg OGT; baseline: input library; direction: higher = stronger binding; measurement: fold enrichment; parent: peptide; TAPFYPPAYQIQVFK
Notes: single substitutions, 15-mer displayed peptide, unchanged parent 19.6
TAPFYPPAYPIQVFK [Q10P]: 1.49 fold
TAPFYVPAYQIQVFK [P6V]: 1.42 fold
TAPFNPPAYQIQVFK [Y5N]: 0.824 fold
TAAFYPPAYQIQVFK [P3A]: 24.9 fold
TAPFYPPALQIQVFK [Y9L]: 5.62 fold
TAPFYPVAYQIQVFK [P7V]: 0.913 fold
MAPFYPPAYQIQVFK [T1M]: 9.4 fold
TAPFYPHAYQIQVFK [P7H]: 1.71 fold

Study 2 — read-out: enzyme activity; action: inhibitor; tested at: 0.5 µM; baseline: control; measurement: remaining activity
Compound: O=C1NC(=O)C(c2c[nH]c3ccccc23)=C1c1c[nH]c2ccccc12
Dual specificity mitogen-activated protein kinase kinase 1 (MAP2K1, Homo sapiens, UniProt Q02750): 95.8%
Tyrosine-protein kinase TXK (TXK, Homo sapiens, UniProt P42681): 101%
G protein-coupled receptor kinase 4 (GRK4, Homo sapiens, UniProt P32298): 97.1%

Study 3 — read-out: cell-free assay; technique: competition with immobilised ligand; tested at: 1 µM; measurement: remaining binding
Compound: O=C1CCc2cc(Nc3cc(OC4CCOCC4)c([N+](=O)[O-])cc3Cl)ccc2N1
Tyrosine-protein kinase Srms (SRMS, Homo sapiens, UniProt Q9H3Y6): 82%
Serine/threonine-protein kinase 38 (STK38, Homo sapiens, UniProt Q15208): 88%
Mast/stem cell growth factor receptor Kit (KIT, Homo sapiens, UniProt P10721, A829P): 100%
RAF proto-oncogene serine/threonine-protein kinase (RAF1, Homo sapiens, UniProt P04049): 98%
Dual specificity protein kinase CLK4 (CLK4, Homo sapiens, UniProt Q9HAZ1): 88%
Mast/stem cell growth factor receptor Kit (KIT, Homo sapiens, UniProt P10721, T670I/V559D): 94%
Cyclin-dependent kinase-like 5 (CDKL5, Homo sapiens, UniProt O76039): 99%
Mitogen-activated protein kinase kinase kinase 14 (MAP3K14, Homo sapiens, UniProt Q99558): 81%
Epidermal growth factor receptor (EGFR, Homo sapiens, UniProt P00533, del752-759): 100%
Tyrosine-protein kinase ABL1, non-phosphorylated (ABL1, Homo sapiens, UniProt P00519): 98%

Single results of other studies — technique: MITOMI; molecule type: double-stranded DNA, one strand shown; medium: in vitro; tested at: not given; baseline: unmutated reference site; direction: higher = stronger binding
Target: Forkhead box protein P2, N-truncated, polyQ removed (FOXP2, Homo sapiens, UniProt O15409, residues 214-715)
Notes: 69-bp whole dsDNA, apparent Ka, titration fit
Sequence (chain, as in one of the studies): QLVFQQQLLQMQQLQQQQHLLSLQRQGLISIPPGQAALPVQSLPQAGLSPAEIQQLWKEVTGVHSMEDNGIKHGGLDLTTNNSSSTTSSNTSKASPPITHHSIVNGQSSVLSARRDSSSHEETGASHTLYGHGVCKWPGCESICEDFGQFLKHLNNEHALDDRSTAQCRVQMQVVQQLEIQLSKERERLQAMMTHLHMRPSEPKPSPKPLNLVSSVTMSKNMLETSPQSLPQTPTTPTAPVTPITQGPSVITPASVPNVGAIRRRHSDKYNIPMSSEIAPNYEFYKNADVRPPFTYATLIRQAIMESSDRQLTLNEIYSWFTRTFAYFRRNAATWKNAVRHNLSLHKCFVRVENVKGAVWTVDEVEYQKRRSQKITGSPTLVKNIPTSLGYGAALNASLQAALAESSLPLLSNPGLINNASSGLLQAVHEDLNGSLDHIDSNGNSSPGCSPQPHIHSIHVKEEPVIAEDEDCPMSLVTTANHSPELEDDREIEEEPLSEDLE
CGCCTGTTACGGCATCAGGGCTTTGGTTTGGGATGGCTGCTTGATTACCAATTGTTCCGGCGGTATGAC  relative association constant: 0.0109 fold
CGCCTGTTACGGCATCAGGGCTTTGGTTTGGGATGGCTGCTTGTTGACCAATTGTTCCGGCGGTATGAC  relative association constant: 0.145 fold

Repeated from above (study 1):
TAPFYPPALQIQVFK [Y9L]: 5.62 fold
TAPFYPVAYQIQVFK [P7V]: 0.913 fold
